Assay results collected from several papers.
Each numbered part is a random draw from the data of one study; scales do not carry over between parts.

Sample 1 — technique: protein binding microarray; form: double-stranded DNA, one strand shown; matrix: in vitro; tested at: not given; baseline: not given; direction: higher = stronger binding
Target: Histone acetyltransferase KAT6A, winged helix 2, GST fusion (KAT6A, Homo sapiens, UniProt Q92794, residues 85-181)
Setting: 8-mer, flanks averaged, mean of 2 arrays, mostly near background
Residues (chain): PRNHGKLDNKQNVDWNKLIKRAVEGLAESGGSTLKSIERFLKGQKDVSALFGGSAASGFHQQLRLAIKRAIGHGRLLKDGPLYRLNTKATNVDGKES
For `ACTCTAAG`, the E-score was -0.262.
`AGACAGGC` has an E-score of -0.0828.
With `TCTGTGCA` the E-score was 0.0899.
The E-score of `CACCATCA` is reported as -0.119.
`AAATACGC` gave an E-score of 0.0122.
`CCTCCGAG` has an E-score of 0.058.
For `ATGACAAG`, the E-score was -0.0788.
The E-score of `CTTCATCC` is reported as -0.0109.
`CGTGAATC` has an E-score of -0.022.
For `AGCTCCGA`, the E-score was 0.0852.
For `ACGCGCAA`, the E-score was 0.153.
The E-score of `ACGTACCG` is reported as -0.117.

Sample 2 — technique: protein-binding microarray; form: double-stranded DNA, one strand shown; matrix: in vitro; tested at: 250 nM; setting: 60-bp whole probe; together with: salmon DNA 0.4 mg/ml; baseline: random background probes; direction: higher = stronger binding; shared flanks, not repeated: GCCTAGCAC … GTCTTGATTCGCTTGACGCTGCTG
Target: Interferon regulatory factor 5, full length, phosphomimetic (IRF5, Homo sapiens, UniProt Q13568-2, residues 1-514, K96S/S451D/S453D/S456D/S462D)
With `AAGCTTCTGGTCTTCTGGACGTGCTAG` the log fluorescence was 0.0391 z-score.
`ATTGCTTTCTCTTTCATTGCGTGCTAG` has a log fluorescence of 6.35 z-score.
`GACGATATCAGACTGGATACGTGCTAG` gave a log fluorescence of 0.295 z-score.
With `TCAACTTCGGCCTCTAGGACTGTGCTA` the log fluorescence was 0.175 z-score.
`TTAGGACTGGGGACAGGGTTAGTGCTA` has a log fluorescence of -0.223 z-score.
With `TCAGTCATCCATCTGAAACTGTGCTAG` the log fluorescence was 0.526 z-score.
The log fluorescence of `TTAGGACTGGGGTATCTGTTAGTGCTA` is reported as -0.00855 z-score.
With `CAGTTTTCCTCTGTCATTTTGTGCTAG` the log fluorescence was 1.68 z-score.
The log fluorescence of `GACGGTATCCTTTTCCTGTCGTGCTAG` is reported as 0.469 z-score.

Sample 3 — technique: RNA Bind-n-Seq; form: RNA; matrix: in vitro; tested at: 365 nM; baseline: no-protein control; direction: higher = stronger binding
Target: RNA binding protein fox-1 homolog 2, RRM domain, GST-SBP tag (RBFOX2, Homo sapiens, UniProt O43251-10, residues 100-194)
Setting: natural RNA segment, single round, ends assumed
Shared flanks, not repeated: GGGAGUUCUACAGUCCGACGAUC … UGGAAUUCUCGGGUGCCAA
Target sequence (chain): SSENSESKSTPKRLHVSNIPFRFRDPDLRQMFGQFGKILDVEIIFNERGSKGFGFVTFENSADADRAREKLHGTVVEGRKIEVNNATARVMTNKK
Under “RBNS enrichment (R)”, `UGCUCUCAGGCAGCACAUCUUGCAAACAGUUUGGAGAAGGAGGCUGUUUUUGUUGAAUCGAGUUCUCAAAUCGGUUUAGACCAAAGCCAUUCUUCUGACCCUCUAGAUAA` is recorded as 0.347.
Under “RBNS enrichment (R)”, `UCUUGGCUGGGAUGGCACUACCCUGUGAGCCAAACACUUUAGGUGUAAGUAGGUACACUUGUGACGUCACUGACCUAGCGUACCUUUCCUUUUCAUAUCUACACUGACCU` is recorded as 0.344.
`UCACCCCUCCUCUGUCUGCACCUCUAAACCCCAGAGCCCUGGAGGGGAGAGACUGGACUCUAGCCAGGCAGUCUUGUGCCGGCACGCACAGCUGCACGCACGCAUGCAAG`: “RBNS enrichment (R)” 9.38.
`GCAGGGUGGGUCCAGCCUUGAGCCCCUCCACCCCCAAAUCCUUCCUCUCCUCCCAGUCCCACCCCUUGCCCCACGGAGUCCUGGGGACGCAGUGCCCCAGCUGGGAAGAG`: “RBNS enrichment (R)” 0.273.
Under “RBNS enrichment (R)”, `GGUCUCUUUUGGGUCAAAAUCAGUCCUUCAGCUCUAAGGUUGCCCAGCAAAGGAAUCUAGGAAUGACAACUGCAGUGUCCACUCCUAAACACCUCCUUCUCUUACACCCU` is recorded as 0.723.
`GAUGAAGCAUGUACGUAUUAUUUAUAUGAUGGAAUUUCACGUUUUUAUGUAAGCAUGAAACACAGGCAGUAUGAGAGAAAGCAAGGCCCGUCAUGCUGUCCGUACACUAC` — result for “RBNS enrichment (R)”: 7.02.
For `GCAUGGUUGUUGCAUAUAGUAAAACUGAGAGUAAUUCACCUGUGAAUCUGCAUAUUAAUUACCUGAUGAUUAACUUAGAAAAGAGAUGGGAACUUAUUAUACAUGGACAU`, “RBNS enrichment (R)” read 6.39.
`AAAUGUGACUAUAGUCAUCUUAAUGGGCAUCUUGUCCACUGUGCUUCUUAUGUAUUAUGAAAGUGAUAAGAAGACAAAUUAAGUGGGUAUAUUUUAUAAAAUAAAUUCAU`: “RBNS enrichment (R)” 0.768.
Under “RBNS enrichment (R)”, `AUUCAGACAAGAAAACUUUGCUUAAAAGAUUUCAUGUGUGGGAACCACAGUUCCUGGCUGCCUUUCUCCUGUGUAUGUGUAAAUUCCUUAAUAAAUAUUGCAGGGAAGGA` is recorded as 0.647.
Under “RBNS enrichment (R)”, `GGCUAAUCACUAGAUUAGAAAACACGCAAUAUGAUGCGGCCAACGGCAUGGACGACGAGGAGGACUUCAACAAUUCACCCGCGCUGGGGAACAACAGCCCGUGGAACAGU` is recorded as 0.825.
Under “RBNS enrichment (R)”, `UUCUCUCUUCCCUUGAUCUUCCUUGGCCUGGCCCAUUCUGCUCUUUACAGUGCCAGAUAUUUAUACAUCAUAAACUUAGGAAAUGCCUAAAAGAGCCUAAGCAGGAAAAA` is recorded as 0.326.
`AAGCUACUCACAGUGGCAAAUGCCUUUUAUCCUAGCACUCCUUAAGCAGAGGCAAACAGGUUUCUUGAGUUCAGGCCAGUCAGGUCUGCAUAAGGAGCUUUAGACCAGUC` — result for “RBNS enrichment (R)”: 0.302.

Mixed results
With `PhoQ, residues 284 288 289 292 302 303 ASVMEA` the fold induction was 0.806 (PhoP, residues 12 14 15 18 19 TPLRH (Escherichia coli, UniProt P23836); Sort-seq, measured: YFP reporter; E. coli; PhoQ-PhoP variant library, together with: 10 µM Mg2+; baseline: high Mg2+ state, higher = stronger signaling).

Some of these lines once more (sample 3):
Under “RBNS enrichment (R)”, `UUCUCUCUUCCCUUGAUCUUCCUUGGCCUGGCCCAUUCUGCUCUUUACAGUGCCAGAUAUUUAUACAUCAUAAACUUAGGAAAUGCCUAAAAGAGCCUAAGCAGGAAAAA` is recorded as 0.326.
Under “RBNS enrichment (R)”, `UGCUCUCAGGCAGCACAUCUUGCAAACAGUUUGGAGAAGGAGGCUGUUUUUGUUGAAUCGAGUUCUCAAAUCGGUUUAGACCAAAGCCAUUCUUCUGACCCUCUAGAUAA` is recorded as 0.347.
Under “RBNS enrichment (R)”, `GGUCUCUUUUGGGUCAAAAUCAGUCCUUCAGCUCUAAGGUUGCCCAGCAAAGGAAUCUAGGAAUGACAACUGCAGUGUCCACUCCUAAACACCUCCUUCUCUUACACCCU` is recorded as 0.723.
